Experimental data gathered from unrelated publications.
Each line is one published result; not all experiments were run side by side.
Target: Dual specificity tyrosine-phosphorylation-regulated kinase 1B (DYRK1B, Homo sapiens, UniProt Q9Y463)

For `O=C(Cc1ccc(OCc2ccccc2)cc1)NC1(C(=O)O)CCN(C(=O)c2ccc(-c3cccc(Cl)c3)cc2)CC1`, “activity vs control” read 98% (enzyme activity, inhibitor; 10 µM).
For `NC(=O)C[C@H]1CCc2sc3ncnc(O[C@H]4CC[C@H](N5CCOCC5)CC4)c3c21`, the inhibition was 38% (enzyme activity, inhibitor; 10 µM).
With `Cc1[nH]nc2c1N=C(c1ccccc1Cl)c1cnc(N3CCOCC3)cc1N2` the inhibition was 68.5% (enzyme activity, inhibitor; 0.5 µM).
With `COc1cc(Nc2nccc(-c3cnn4nc(OC)ccc34)n2)cc(C(F)(F)F)c1` the remaining binding was 76% (binding, competition with immobilised ligand; 1 µM).
For `Nc1ncc(-c2cc(-c3cnn(CC(F)(F)F)c3)ncc2F)nc1C(=O)NC1CNCC(F)C1` (stereo not drawn), the remaining activity was 79.4% (enzyme activity; 1 µM; reference: DMSO control).
For `CN1CC[C@@H](COc2cnc(C#N)cc2-c2ccn3nc(NC(=O)C4CC4)cc3c2)C1`, the inhibition was 3% (enzyme activity, inhibitor; 1 µM).
`Nc1ncc2c(n1)-c1c([nH]c3ccc(C4=CCOCC4)cc13)CCC2` gave a remaining binding of 48% (binding, competition with immobilised ligand; 1 µM).
With `CN1CCN(Cc2ccc(-c3ccc(CO[C@H]4CCC[C@@H]4NC(=O)c4cc(-c5cnn(C)c5)cnc4N)cc3)cc2)CC1` the inhibition was -6% (enzyme activity, inhibitor; 0.1 µM).
The remaining binding of `CN1CCN(Cc2ccc(NC(=O)c3cccc(C#Cc4cnc(N)c5ncccc45)c3)cc2C(F)(F)F)CC1` is reported as 45% (cell-free assay, competition with immobilised ligand; 50 nM).
The remaining binding of `CCN1CCN(Cc2ccc(C(=O)Nc3ccc(C)c(NCc4cnc5[nH]ccc5c4OC)c3)cc2C(F)(F)F)CC1` is reported as 82% (binding, competition with immobilised ligand; 1 µM).
`CNC(=O)C1CCN(c2cc(C)c(F)cc2NC(=O)c2ccc(-c3cc(O)ccc3C)c(C)c2)CC1` has a remaining binding of 52% (binding, competition with immobilised ligand; 1 µM).
`CNC(=O)C[C@H](Cc1ccc(C#N)cc1)NC(=O)c1cc(-c2ccc(CN[C@H](C)c3ccc(C)cc3)o2)ccc1Cl`: “activity vs control” 109% (enzyme activity, inhibitor; 1 µM).
For `COc1c(Cl)cccc1Nc1c(-c2ccncc2C#C[C@@]2(C)CCCN2C(=O)/C=C/CN(C)C)[nH]c2c1C(=O)NCC2`, the remaining binding was 77% (cell-free assay, competition with immobilised ligand; 3 µM).
For `C=CC(=O)Nc1cccc(-c2cnc3[nH]cc(C(=O)NC(C)(C)C)c3n2)c1`, the inhibition was 4% (enzyme activity, inhibitor; 0.1 µM).
The remaining binding of `CC(=O)N1c2ccc(-c3ccc(CNC(=O)c4cn5cc(-c6cnc(N)nc6)nc(N6CCOCC6)c5n4)cc3)cc2CC[C@@H]1C` is reported as 98% (KINOMEscan; 10 µM).
`Cc1cccc(O[C@H]2CCC[C@@H](C(C)CNCc3ccncc3)C2)c1` (relative stereo) gave an inhibition of 4% (cell-free assay; 1 µM).
For `CNC1C[S+]2CC[S+]3CC[S+](C1)[Ru-4]321([N]=C=S)[n]2c3ccc(OC)cc3c3c4c(c5cc(F)c[n+]1c5c32)C(=O)NC4=O` (stereo not drawn), the remaining binding was 41% (KinomeScan; 0.1 µM; reference: untreated).
The remaining binding of `Cc1cnc2nc1Nc1cccc(c1)COC/C=C/COCc1cc(ccc1OCCN1CCOCC1)N2` is reported as 84% (binding; 0.1 µM).

For quick reference, copied from above:
`CNC(=O)C1CCN(c2cc(C)c(F)cc2NC(=O)c2ccc(-c3cc(O)ccc3C)c(C)c2)CC1` has a remaining binding of 52% (binding, competition with immobilised ligand; 1 µM).
